{"data": "Assay results collected from several papers", "note": "Every numbered part comes from another study and shows a few of its results, in no order. Positions count from the first letter of the parent shown."}
{"data": "Set 1", "target": "CCNF, cyclin fold, Cln2 fusion (human)", "technique": "yeast growth competition, sequencing", "sample": "yeast", "setting": "strong parent motif", "baseline": "not given", "reading": "higher = stronger binding", "parent": "SLBP docking peptide (human); ARYKRKLLINDFG; partner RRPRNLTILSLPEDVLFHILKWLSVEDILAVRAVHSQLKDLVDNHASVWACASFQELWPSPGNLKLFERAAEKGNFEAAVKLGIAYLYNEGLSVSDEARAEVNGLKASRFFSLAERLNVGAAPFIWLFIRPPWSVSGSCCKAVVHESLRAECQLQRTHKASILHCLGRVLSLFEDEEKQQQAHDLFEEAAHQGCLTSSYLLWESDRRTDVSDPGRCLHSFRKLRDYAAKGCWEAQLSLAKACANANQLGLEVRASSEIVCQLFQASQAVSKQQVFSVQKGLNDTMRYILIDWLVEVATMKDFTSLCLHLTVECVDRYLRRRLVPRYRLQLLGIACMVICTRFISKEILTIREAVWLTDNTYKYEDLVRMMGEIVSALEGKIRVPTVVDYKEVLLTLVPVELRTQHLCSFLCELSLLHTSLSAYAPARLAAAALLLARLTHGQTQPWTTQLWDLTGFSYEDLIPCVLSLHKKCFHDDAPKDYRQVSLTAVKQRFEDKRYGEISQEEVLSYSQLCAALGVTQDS"}
{"Change": "ARYKRKLLENDFG [I9E]", "normalised enrichment score": 1.17}
{"Change": "ARYKRKLLIPDFG [N10P]", "normalised enrichment score": 2.49}
{"Change": "ARYKRKLLINDQG [F12Q]", "normalised enrichment score": 1.39}
{"Change": "KRYKRKLLINDFG [A1K]", "normalised enrichment score": 1.27}
{"Change": "ARYKRKLIINDFG [L8I]", "normalised enrichment score": 2.02}
{"Change": "ARYKFKLLINDFG [R5F]", "normalised enrichment score": 1.77}
{"data": "Set 2", "Substance": "PhoQ, residues 284 288 289 292 302 303 TVTVVA", "technique": "Sort-seq", "item": "YFP reporter", "sample": "E. coli", "setting": "PhoQ-PhoP variant library", "with": "10 µM Mg2+", "baseline": "high Mg2+ state", "reading": "higher = stronger signaling"}
{"target": "PhoP, residues 12 14 15 18 19 STHWV (Escherichia coli, UniProt P23836)", "fold induction": 4.28}
{"target": "PhoP, residues 12 14 15 18 19 QYCSL (Escherichia coli, UniProt P23836)", "fold induction": 10.6}
{"target": "PhoP, residues 12 14 15 18 19 SHWTV (Escherichia coli, UniProt P23836)", "fold induction": 0.901}
{"data": "Set 3", "target": "ABI1, truncated, D143A, DHFR fusion (Arabidopsis thaliana)", "technique": "DHFR PCA, deep sequencing", "sample": "yeast", "setting": "methotrexate growth selection, single substitutions", "with": "(+)-ABA 0 µM", "baseline": "wild-type fitted maximum", "reading": "higher = stronger binding", "parent": "PYL1, truncated, DHFR fusion (Arabidopsis thaliana); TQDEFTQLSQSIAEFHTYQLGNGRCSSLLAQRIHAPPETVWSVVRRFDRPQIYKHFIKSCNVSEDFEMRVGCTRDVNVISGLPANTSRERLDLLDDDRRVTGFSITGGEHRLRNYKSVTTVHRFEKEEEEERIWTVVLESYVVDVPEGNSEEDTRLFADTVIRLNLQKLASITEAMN; partner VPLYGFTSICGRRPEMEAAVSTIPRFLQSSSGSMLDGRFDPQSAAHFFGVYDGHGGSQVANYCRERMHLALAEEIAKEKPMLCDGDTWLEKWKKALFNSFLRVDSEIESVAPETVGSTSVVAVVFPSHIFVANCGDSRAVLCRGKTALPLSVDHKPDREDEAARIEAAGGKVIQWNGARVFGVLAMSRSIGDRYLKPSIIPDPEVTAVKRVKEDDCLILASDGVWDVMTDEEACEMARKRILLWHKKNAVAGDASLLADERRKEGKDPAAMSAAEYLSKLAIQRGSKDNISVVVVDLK"}
{"Change": "S104Y", "relative binding score [%]": -3.24}
{"Change": "N61G", "relative binding score [%]": 7.74}
{"Change": "G108V", "relative binding score [%]": -3.62}
{"Change": "S140E", "relative binding score [%]": 6.42}
{"Change": "D92G", "relative binding score [%]": 1.63}
{"Change": "C25M", "relative binding score [%]": 5.08}
{"data": "Set 4", "target": "Sal-like protein 4, full length isoform B (SALL4, Homo sapiens, UniProt Q9UJQ4-2, residues 1-616)", "technique": "universal PBM", "form": "double-stranded DNA, one strand shown", "sample": "in vitro", "concentration": "not given", "setting": "8-mer, flanks averaged, mean of replicates", "reading": "higher = stronger binding"}
{"Strand": "ACCTTCAC", "E-score": -0.038}
{"Strand": "TGCCCACA", "E-score": -0.353}
{"Strand": "ACCGAATC", "E-score": 0.00252}
{"Strand": "CAAGCAGG", "E-score": -0.221}
{"Strand": "CGACACAA", "E-score": -0.0913}
{"Strand": "ATCTTGCA", "E-score": 0.236}
{"note": "A few entries again (set 4):"}
{"Strand": "TGCCCACA", "E-score": -0.353}
{"Strand": "ATCTTGCA", "E-score": 0.236}
{"Strand": "ACCTTCAC", "E-score": -0.038}
